Results from different studies.
Protocols differ between the studies behind these lines. ± gives the spread as reported.

CCCCOc1ccc([C@H]2CC[C@H](CCC)CC2)c(F)c1F
concentration (item: compound; human pregnant women, female fetuses, maternal serum; dose not given, paired maternal-cord samples, mean): 8.57 ng/mL

CC[C@H](C)[C@H](NC(=O)[C@H](Cc1ccccc1)NC(=O)[C@H](CCC(=O)O)NC(=O)[C@H](CCCCNC(=O)COCCOCCNC(=O)COCCOCCNC(=O)CC[C@H](NC(=O)CCCCCCCCCCCCCCCCC(=O)O)C(=O)O)NC(=O)[C@H](C)NC(=O)[C@H](C)NC(=O)[C@H](CCC(N)=O)NC(=O)CNC(=O)[C@H](CCC(=O)O)NC(=O)[C@H](CC(C)C)NC(=O)[C@H](Cc1ccc(O)cc1)NC(=O)[C@H](CO)NC(=O)[C@H](CO)NC(=O)[C@@H](NC(=O)[C@H](CC(=O)O)NC(=O)[C@H](CO)NC(=O)[C@@H](NC(=O)[C@H](Cc1ccccc1)NC(=O)[C@@H](NC(=O)CNC(=O)[C@H](CCC(=O)O)NC(=O)C(C)(C)NC(=O)[C@@H](N)Cc1cnc[nH]1)[C@@H](C)O)[C@@H](C)O)C(C)C)C(=O)N[C@@H](C)C(=O)N[C@@H](Cc1c[nH]c2ccccc12)C(=O)N[C@@H](CC(C)C)C(=O)N[C@H](C(=O)N[C@@H](CCCNC(=N)N)C(=O)NCC(=O)N[C@@H](CCCNC(=N)N)C(=O)NCC(=O)O)C(C)C
placebo-subtracted change in QTcI (QT interval corrected for heart rate, 12-lead Holter ECG; healthy human subjects; subcutaneous, 1.5 mg once weekly, 30 h post-dose, steady state; reference: placebo, time-matched baseline): -4.6 ms

Nc1c(CC(=O)O)cccc1C(=O)c1ccc(Br)cc1
active uptake clearance (cynomolgus monkey, suspended hepatocytes; dose not given; unbound, scaled in vitro): 520 mL/min/kg

O=C1CCc2ccc(OCCCCN3CCN(c4cccc(Cl)c4Cl)CC3)cc2N1
adverse event incidence (item: Constipation; genotyped patients, CYP2D6 normal metabolizers; dose not given, long-acting oral or depot): 0.8%

CCNCCCNC/C=C\CNCCCNCC
volume of distribution (LC-MS/MS; cancer patients, plasma; intravenous infusion, 50 mg, 60 min infusion, median, cycle 1): 29.7 L/kg

C=CC(=O)N1CCC([C@@H]2CCNc3c(C(N)=O)c(-c4ccc(Oc5ccccc5)cc4)nn32)CC1
stability relative error (rat plasma; 400 ng/mL, three freeze-thaw cycles; reference: nominal concentration): 0.2%

O=C(Nc1nc2cccc(-c3ccc(CN4CCS(=O)(=O)CC4)cc3)n2n1)C1CC1
treatment-emergent adverse events (item: nervous system disorders; human rheumatoid arthritis patients; oral, 75 mg once daily, 4 weeks, regardless of relatedness): 4.5%

O=C1CCCN1c1ccc(Cl)c(NS(=O)(=O)c2cccc(Cl)c2O)c1
DLS scattered light intensity (colloidal aggregate formation, dynamic light scattering; 50 mM potassium phosphate buffer; 200 µM, pH 7.0, 1% DMSO; higher = more aggregation): 464000 counts/s

CNCCOC12CC3(C)CC(C)(CC(Cn4ncc(-c5ccc(N6CCc7cccc(C(=O)Nc8nc9ccccc9s8)c7C6)nc5C(=O)O)c4C)(C3)C1)C2
PR interval change (beagle dog, male, anaesthetised; intravenous bolus, 0.03 mg/kg, 120 min; reference: baseline): -9 ms

Cc1nc(-c2ccc(OCC(C)C)c(C#N)c2)sc1C(=O)O
subjects with serious adverse events (healthy Chinese subjects; oral, 40 mg, fed, single dose): 0%

COc1ncc(-c2nc3c(n2C(C)C)[C@H](c2ccc(Cl)cc2)N(c2cc(Cl)cn(C)c2=O)C3=O)c(OC)n1
median half-life (human patients, plasma; oral, 100 mg, high-dose arm, cycle 2 day 1): 19.9 h

O=C(COc1ccc(Cl)cc1)NC12CC(c3nnc([C@H]4C[C@@H](OC(F)(F)F)C4)o3)(C1)C2
participants with TEAE (human both sexes; oral, 100 mg once daily, 14 days): 100%

O=S(=O)(Nc1ccc(-c2ccco2)cc1F)c1cccc(Cl)c1O
DLS scattered light intensity (colloidal aggregate formation, dynamic light scattering; 50 mM potassium phosphate buffer; 200 µM, pH 7.0, 1% DMSO; higher = more aggregation): 1.24e+06 counts/s

NC(=O)N1c2ccccc2C=Cc2ccccc21
adverse events incidence (item: body temperature increased; human male; oral, dose not given, CTCAE on-treatment AEs): 7%

Cc1cc(Nc2ncnc3ccc(NC4=NC(C)(C)CO4)cc23)ccc1Oc1ccn2ncnc2c1
Cmax, mean (human, plasma; oral, 300 mg, day 1, single dose alone): 350 ng/mL

Cc1nc(-c2ccc(OCC(C)C)c(C#N)c2)sc1C(=O)O
geometric mean ratio Cmax (human, plasma; oral, 20 mg, added: verinurad 2.5 mg; reference: test over reference): 103

C[C@@H](O)[C@H]1C(=O)N2C(C(=O)O)=C(S[C@@H]3CN[C@H](C(=O)N(C)C)C3)[C@H](C)[C@H]12
deviation from nominal concentration (human whole blood; concentration not given, 8 h, 4 °C): 2.4%

CN(CCCN1CCN(C(=O)CN2CCN(CC(=O)[O-])CCN(CC(=O)[O-])CCN(CC(=O)[O-])CC2)CC1)c1ccc2nccc(C(=O)NCC(=O)N3CC(F)(F)C[C@H]3C#N)c2c1.[68Ga+3]
uptake (mice, HT-1080.hFAP and HT-1080 wild-type xenografts, heart; iv, 500 pmol, 1 h post injection): 0.2 %IA/g

CCO[C@H]1CCN(Cc2c(OC)cc(C)c3[nH]ccc23)[C@H](c2ccc(C(=O)O)cc2)C1
incidence of dry throat (PNH patients, active haemolysis; oral, 50 mg, 4 weeks, treatment): 0%

C[C@@H](Nc1cc(F)cc(F)c1)c1cc(C(=O)N(C)C)cc2c(=O)cc(N3CCOCC3)oc12
AUC(0-12) (human; 60 mg twice daily, vistusertib alone, geometric LSM): 1560 ng·h/mL

O=C(O)CCC(=O)O.[2H]C([2H])([2H])Oc1cc(C)c2[nH]ccc2c1CN1CC[C@@H](C2CC2)C[C@H]1c1ccc(C(=O)O)cc1
Tmax (human, plasma; 50 mg twice daily, day 1, multiple ascending dose, median): 4 h

CCCOc1ccc([C@H]2CNC(=O)N2c2ccc3[nH]cnc3c2)cc1
AUC(0-tlast) (human volunteers fed, plasma; oral tablet, 200 mg single dose, crossover, geometric mean): 2300 ng·h/mL

CCOc1c([C@H](C)n2nc(C)c3c(N)ncnc32)cc(Cl)c(F)c1[C@@H]1CNC(=O)C1
Cmax (human, B-cell malignancies, plasma; oral, 20 mg, day 15): 1720 nM

O=S(=O)(NCC(O)c1cc2ccccc2s1)c1cccc(Cl)c1O (stereo not shown)
DLS scattered light intensity (colloidal aggregate formation, dynamic light scattering; 50 mM potassium phosphate buffer; 200 µM, pH 7.0, 1% DMSO; higher = more aggregation): 433000 counts/s

Cc1cc(C)c(CNC(=O)c2cc(Cl)c3c(c2C)O[C@@](C)([C@H]2CC[C@H](N(C)C)CC2)O3)c(=O)[nH]1
Cavg (human NHL patients, plasma; oral, 200 mg/day, 15 day): 591 ng/mL

CCc1cc(C(=O)NC)c2nccc(N3CCc4c(cc(Cn5ccnc5)cc4-c4cn(C)nc4C(F)(F)F)C3=O)c2c1
serum RDW change (Sprague Dawley rats; oral, 50 mg/kg once daily, 7 days; reference: vehicle): -2.94%

C=CC(=O)N1CCC(c2ccc(C(N)=O)c(-c3ccc(Oc4ccccc4)cc3)n2)CC1
serious TEAE rate (relapsed/refractory mantle cell lymphoma patients; oral, 100 mg twice daily, part, CTCAE v4.03): 0%

CO[C@@H]1[C@H](O)[C@@H](CO)O[C@H]1n1c([N+](=O)[O-])nc2c(=O)[nH]c(N)nc21
nucleoside remaining fraction (depurination, RP-HPLC; citrate-phosphate buffer 0.5 mM; 105 min, pH 7, 37 °C): 0.927

Cc1cc(NC2CCN(C(=O)OC3CCN(C(=O)/C=C/CN(C)C)C3)CC2)n2ncc(C(C)C)c2n1 (stereo not shown)
patients with adverse event (Phase I dose escalation CTCAE v4.0, item: Ascites; patients with advanced solid tumours; dose not given, TIW dosing any grade): 9%

Cc1ccc2cccc(C(=O)O)c2c1
HC50 (haemolysis; sheep erythrocytes; 1 h, pH 7.5): > 128 µg/mL

COc1cccc(OC)c1-c1cc(C(=O)NC2(C(=O)O)C3CC4CC(C3)CC2C4)nn1-c1ccc(C(=O)N(C)CCCN(C)CCCN(C)C(=O)CN2CCN(CC(=O)[O-])CCN(CC(=O)[O-])CCN(CC(=O)[O-])CC2)cc1C(C)C.[177Lu+3] (stereo not shown)
tissue uptake (mouse, HT-29 xenograft, spleen; 168 h post injection): 0.52 %ID/g

CCn1ncc2c1-c1cnc(N)c(c1)O[C@H](C)c1cc(F)ccc1-c1nn(C)nc1C2
unbound plasma concentration (female athymic nude mice, sample B PDX; oral, 15 mg/kg once daily for 1 days, 1 h): 1600 ± 104 nM

COc1cc(-c2cnc3cc(OCCN4CCOCC4)ccn23)cc2c1C(=O)N(CC(F)(F)F)CC2
Ctrough (LC-MS; human, plasma; oral, 350 mg once daily, day 7, co-dosed with methotrexate; arithmetic mean): 68.1 ng/mL

C=CC(=O)NC1CCN(c2ncc3ncnc(Nc4ccc(Oc5ccc6c(c5)ncn6C)c(C)c4)c3n2)CC1
blood-to-plasma ratio (item: total radioactivity; healthy male human, whole blood and plasma; oral, 60 mg, 72 h, geometric mean): 2.07

COc1ccc(F)cc1C(=O)NCc1ccc(-c2nn([C@@H](C)C(F)(F)F)c(N)c2C(N)=O)cc1
unchanged drug excreted (healthy men, urine; intravenous, 22 µg; reference: dose): 7.4%

CC#CC(=O)N1CC[C@@H](n2c(=O)n(-c3ccc(Oc4ccccc4)cc3)c3c(N)ncnc32)C1
Tmax, median (human, fasting, plasma; oral, 320 mg once daily, cycle 1 day 1): 2 h

CC(C)(C(=O)N1CCOc2c(C#N)cncc2C1)C(F)F
subjects with TEAE (item: medical device site dermatitis; human, both sexes; oral, 15 mg twice daily, 14 days, multiple ascending dose): 0%

CCO[C@H]1CCN(Cc2c(OC)cc(C)c3[nH]ccc23)[C@H](c2ccc(C(=O)O)cc2)C1
unbound AUClast (human healthy controls, plasma; oral, 200 mg single dose, median): 3590 ng·h/mL

C=CC1(C)CC(OC(=O)CSCCCCCN(C)C)C2(C)C(C)CCC3(CCC(=O)C32)C(C)C1O (stereo not shown)
HC50 (haemolysis; sheep erythrocytes; 1 h, pH 7.5): > 128 µg/mL

COc1ccnc(C(=O)NC(CO)C(=O)O)c1O (racemic)
Freundlich coefficient KF (soil adsorption; clay soil; pH 7.6, organic carbon 1.7 %): 6.08 mL/g

COC(=O)C(Cc1cccc(OC)c1I)NC(=O)CNCc1ccccc1 (stereo not shown)
half-life (beagle dog; 1 µM): > 3 h

O=C1CC[C@H](N2Cc3cc(N4CCN(CC5CCN(c6ccc([C@@H]7c8ccc(O)cc8CC[C@@H]7c7ccccc7)cc6)CC5)CC4)ccc3C2=O)C(=O)N1
buffer concentration (EpiIntestinal microtissues incubation buffer; 40 µM, 0 h): 38.5 µM

CC(C)n1c(Nc2cccnc2)nc2cnc(Nc3ccc(N4CCN(C)CC4)cc3)nc21
subjects with adverse event (item: hemoglobin increased; healthy male subjects; oral, 100 mg, study, added: itraconazole): 0%
